Measurements gathered from unrelated publications.
Compare with care: the assays were run in different laboratories.
MAP3K12: Mitogen-activated protein kinase kinase kinase 12 (MAP3K12, Homo sapiens, UniProt Q12852)
TDP1: Tyrosyl-DNA phosphodiesterase 1 (TDP1, Homo sapiens, UniProt Q9NUW8)
UniProt Q9NUW8, sequence (whole entry, looked up): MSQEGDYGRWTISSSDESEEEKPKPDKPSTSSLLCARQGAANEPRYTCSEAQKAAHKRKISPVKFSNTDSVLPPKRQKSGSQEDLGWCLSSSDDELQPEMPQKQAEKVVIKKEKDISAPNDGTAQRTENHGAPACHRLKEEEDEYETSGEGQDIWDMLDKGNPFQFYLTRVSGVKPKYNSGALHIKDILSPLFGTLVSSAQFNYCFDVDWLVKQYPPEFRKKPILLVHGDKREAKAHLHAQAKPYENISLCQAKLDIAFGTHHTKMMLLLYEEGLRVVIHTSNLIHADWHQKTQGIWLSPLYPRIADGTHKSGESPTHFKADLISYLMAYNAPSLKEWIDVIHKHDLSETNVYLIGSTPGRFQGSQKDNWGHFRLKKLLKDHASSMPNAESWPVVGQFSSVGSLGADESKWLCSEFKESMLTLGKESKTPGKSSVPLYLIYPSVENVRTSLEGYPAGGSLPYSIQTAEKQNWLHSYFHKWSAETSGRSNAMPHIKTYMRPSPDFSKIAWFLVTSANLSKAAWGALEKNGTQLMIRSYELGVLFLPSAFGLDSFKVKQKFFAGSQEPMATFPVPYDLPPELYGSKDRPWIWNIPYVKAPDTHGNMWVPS

For `CCN1CCN(Cc2ccc(C(=O)Nc3ccc(C)c(NCc4cnc5[nH]ccc5c4OC)c3)cc2C(F)(F)F)CC1`, the remaining binding was 100% (MAP3K12; binding, competition with immobilised ligand; 1 µM).
The remaining binding of `C=CC(=O)N1CCCC(n2c(=O)c3ncccc3n(Cc3ccc(Oc4ccccc4)cc3)c2=O)C1` (stereo not shown) is reported as 88% (MAP3K12; cell-free assay, competition with immobilised ligand; 1 µM).
The binding of `Cc1cnc2nc1Nc1cccc(c1)COC/C=C/COCc1cc(ccc1OCCN1CCOCC1)N2` is reported as 73% (MAP3K12; concentration not given, kinase construct DLK; relative to: control).
`CNC(=O)C1CCN(c2cc(C)c(F)cc2NC(=O)c2ccc(-c3cc(O)ccc3C)c(C)c2)CC1` gave a remaining binding of 76% (MAP3K12; binding, competition with immobilised ligand; 1 µM).
With `Cn1cc(-c2cnc3ccc(NC(=O)Nc4ccc5sccc5c4)cc3n2)cn1` the inhibition was 15.6% (MAP3K12; kinase binding, KiNativ profiling, measured: Lys2 peptide; PANC-1 lysate; 2.5 µM).
`COc1c(Cl)cccc1Nc1c(-c2ccncc2C#C[C@@]2(C)CCCN2C(=O)/C=C/CN(C)C)[nH]c2c1C(=O)NCC2` gave a remaining binding of 77% (MAP3K12; binding, competition with immobilised ligand; 3 µM).
`CCn1cc(C(=O)O)c(=O)c2c(N)c(F)c(NC3CCCCC3)cc21` gave an inhibition of 8.9% (MAP3K12; kinase activity; 0.1 µM, with: ATP at Km).
With `COc1cc(Nc2nc(C)cc(-c3cnn4nc(OC)ccc34)n2)cc(C(F)(F)F)c1` the remaining binding was 92% (MAP3K12; KINOMEscan; 1 µM, DLK; relative to: DMSO).
With `O=C(O)c1ccc(Nc2c(-c3ccc(CON=Cc4cc5ccccc5s4)cc3)nc3cc(-c4ccccc4)ccn23)cc1` the inhibition was 35.5% (TDP1; enzyme activity, inhibitor; 100 µM, unpurified compound).
For `Nc1ncc2c(n1)-c1c([nH]c3ccc(C4=CCOCC4)cc13)CCC2`, the remaining binding was 100% (MAP3K12; binding, competition with immobilised ligand; 1 µM).
`COc1cc(Nc2nccc(-c3cnn4nc(OC)ccc34)n2)cc(C(F)(F)F)c1` gave a remaining binding of 96% (MAP3K12; binding, competition with immobilised ligand; 1 µM).
With `Cc1ccc(-c2c(/C=C(\C#N)C(=O)NC(C)C)n(CCCO)c3ncnc(N)c23)cc1` the remaining binding was 90% (MAP3K12; cell-free assay, competition with immobilised ligand; 1 µM).
With `CNC1C[S+]2CC[S+]3CC[S+](C1)[Ru-4]321([N]=C=S)[n]2c3ccc(OC)cc3c3c4c(c5cc(F)c[n+]1c5c32)C(=O)NC4=O` (stereo not shown) the remaining binding was 92% (MAP3K12; KinomeScan; 0.1 µM; relative to: untreated).
`CS(=O)(=O)Nc1cccc(-c2csc3cnc(Nc4ccc(N5CCN(CCCCCOc6cccc7c6C(=O)N(C6CCC(=O)NC6=O)C7=O)CC5)cc4)nc23)c1` (stereo not shown) has an inhibition of 53.5% (MAP3K12; probe labelling, inhibitor, KiNativ chemoproteomics; MOLT-4; 1 µM).
With `COC(=O)c1cccc(C=NOCc2ccc(-c3nc4cc(-c5ccccc5)ccn4c3Nc3ccc(C(=O)O)cc3)cc2)c1O` the inhibition was 28.9% (TDP1; enzyme activity, inhibitor; 100 µM, unpurified compound).
For `NC(=O)C[C@H]1CCc2sc3ncnc(O[C@H]4CC[C@H](N5CCOCC5)CC4)c3c21`, the inhibition was 5% (MAP3K12; enzyme activity, inhibitor; 10 µM).
The remaining binding of `C=CC(=O)N1CCc2ccc(-n3c(=O)ccc4cnc5ccc(-c6cnn(C)c6)cc5c43)cc21` is reported as 100% (MAP3K12; KINOMEscan; 1 µM; relative to: DMSO control).
For `CC(C)=CC1OC(C)(C)C2C=C3C(=O)C(Cl)=CC(O)C3C3C(O)C4OC4C(=O)C132` (stereo not shown), the remaining binding was 99% (MAP3K12; cell-free assay, competition with immobilised ligand; 10 µM).
The inhibition of `NC(=O)[C@@H](O)C[C@H]1CCc2sc3ncnc(O[C@H]4CC[C@H](N5CCOCC5)CC4)c3c21` is reported as 10% (MAP3K12; enzyme activity, inhibitor; 10 µM).

Repeated from above:
`CCn1cc(C(=O)O)c(=O)c2c(N)c(F)c(NC3CCCCC3)cc21` gave an inhibition of 8.9% (MAP3K12; kinase activity; 0.1 µM, with: ATP at Km).
The inhibition of `NC(=O)[C@@H](O)C[C@H]1CCc2sc3ncnc(O[C@H]4CC[C@H](N5CCOCC5)CC4)c3c21` is reported as 10% (MAP3K12; enzyme activity, inhibitor; 10 µM).
The remaining binding of `C=CC(=O)N1CCCC(n2c(=O)c3ncccc3n(Cc3ccc(Oc4ccccc4)cc3)c2=O)C1` (stereo not shown) is reported as 88% (MAP3K12; cell-free assay, competition with immobilised ligand; 1 µM).
